Measured values collected from several papers.
Parts stem from different laboratories: compare values within a part only.

Sample 1 — technique: RNA Bind-n-Seq; form: RNA; sample: in vitro; concentration: 200 nM; setting: whole 134-nt RNA, ends assumed; together with: 150 mM KCl; baseline: input library; reading: higher = stronger binding
Target: Fragile X messenger ribonucleoprotein 1, C-terminal low-complexity region (Fmr1, Mus musculus, UniProt P35922)
`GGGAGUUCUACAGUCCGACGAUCACCAUGCAGGUGGGCAUCUUUGGGAAGUGGGGCAAGGGGGGGAUAGGGAGGGGGGUAACACUUUGGGAACAGGUGGCCCCAGGUCGUUUCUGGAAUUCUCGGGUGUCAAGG` gave a log2 enrichment of 0.759.
`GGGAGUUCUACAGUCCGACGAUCGUCCUGUGCUACACAUCGUAUGUACCGAAUCGGGGUUUUUGGGGAAAAAGGGGAGGGGAAAGUAUUAUGUUACGCCGUUCGGAUCUGCACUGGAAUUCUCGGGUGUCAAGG` has a log2 enrichment of 0.508.
The log2 enrichment of `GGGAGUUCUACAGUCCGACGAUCUCAUGGCUAUCAUUAGCCACAGGUACUGCUGAUUAUAAGGCCAGUAAAAUUUUAGUACCUGGAGGUUUGACUCUAAUUUUUGCACUGAUGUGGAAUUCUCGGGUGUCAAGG` is reported as -1.69.
The log2 enrichment of `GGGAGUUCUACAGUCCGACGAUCCCUGUGCUACACAUCGUAUGUACCGAAUCGGGGAAAGGGGAAAAAGGGGUUUUUUUGGGGAAAGUAUUAUGUUACGCCGUUCGGAUCUGCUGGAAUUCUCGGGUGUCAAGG` is reported as 0.224.
With `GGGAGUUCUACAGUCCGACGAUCAGGAAAAUGUUUAUAGGAGGCCUUAGCUGGGACACUACAAAGAAAGAUCUGAAGGACUACUUUUCCAAAUUUGGUGAAGUUGUAGACUGCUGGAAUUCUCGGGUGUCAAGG` the log2 enrichment was -0.782.
`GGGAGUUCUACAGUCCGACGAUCUAACUUUAGAGGAGGAUCUGAUGGAUAUGGCAGUGGACGUGGAUUUGGGGAUGGCUAUAAUGGGUCUGGAGGAGGACCUGGAGGUGGCAAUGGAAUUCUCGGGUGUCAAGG` gave a log2 enrichment of 0.224.
`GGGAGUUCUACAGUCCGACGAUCAGUCCUGUGCUACACAUCGUAUGUACCGAAUCGGUUUUGGGGUUUUGGGGUUUUGGGGAAAGUAUUAUGUUACGCCGUUCGGAUCUGCACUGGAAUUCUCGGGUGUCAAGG` has a log2 enrichment of 0.121.

Sample 2 — technique: protein-binding microarray; form: double-stranded DNA, one strand shown; sample: in vitro; concentration: 2200 nM top; setting: 60-bp whole probe; together with: salmon DNA 0.4 mg/ml; baseline: random background probes; reading: higher = stronger binding; all sequences stand within: GCCTAGCAC … GTCTTGATTCGCTTGACGCTGCTG
Target: Interferon regulatory factor 7, full length, phosphomimetic (IRF7, Homo sapiens, UniProt Q92985, residues 1-503, S471D/S472D/S475D/S476D/S477D/S483D/S484D/S487D)
Construct (chain): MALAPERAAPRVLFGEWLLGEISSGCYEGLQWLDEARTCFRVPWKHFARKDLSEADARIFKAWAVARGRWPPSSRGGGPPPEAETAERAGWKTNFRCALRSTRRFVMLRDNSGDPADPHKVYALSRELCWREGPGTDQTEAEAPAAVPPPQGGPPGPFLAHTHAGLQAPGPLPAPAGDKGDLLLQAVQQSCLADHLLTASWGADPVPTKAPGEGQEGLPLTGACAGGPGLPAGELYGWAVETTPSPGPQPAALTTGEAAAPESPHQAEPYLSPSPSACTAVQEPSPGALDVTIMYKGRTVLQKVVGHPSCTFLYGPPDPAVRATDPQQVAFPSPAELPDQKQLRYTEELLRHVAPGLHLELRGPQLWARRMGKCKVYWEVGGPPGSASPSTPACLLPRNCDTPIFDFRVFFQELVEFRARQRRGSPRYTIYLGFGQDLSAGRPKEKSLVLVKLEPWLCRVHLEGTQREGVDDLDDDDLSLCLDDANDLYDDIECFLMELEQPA
For `TTAGGACTGGGGCTTCGGTTAGTGCTA`, “fitted relative affinity” read -0.653 z-score.
For `CTTGTTTTACAATTTGCTTTGTGCTAG`, “fitted relative affinity” read 1.91 z-score.
Under “fitted relative affinity”, `ATAGATTCCAGTTTCGATTAGTGCTAG` is recorded as 6.82 z-score.
For `GACGGTTTCCGTTCCGGGACGTGCTAG`, “fitted relative affinity” read 4.65 z-score.
For `AACGGTATCCTTATCCTGACGTGCTAG`, “fitted relative affinity” read 0.883 z-score.
`CTCCTTTTAATTTTTAACGAGTGCTAG`: “fitted relative affinity” 1.17 z-score.

Sample 3 — technique: protein binding microarray; form: double-stranded DNA, one strand shown; sample: in vitro; concentration: not given; baseline: not given; reading: higher = stronger binding
Target: Histone acetyltransferase KAT6A, winged helix 1, GST fusion (KAT6A, Homo sapiens, UniProt Q92794, residues 1-85)
Setting: 8-mer, flanks averaged, mean of 2 arrays, mostly near background
Residues (chain): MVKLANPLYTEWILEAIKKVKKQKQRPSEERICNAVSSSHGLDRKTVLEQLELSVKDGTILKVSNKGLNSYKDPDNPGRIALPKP
`AGCCGCGC` gave an E-score of 0.441.
`ACGAAGAC` gave an E-score of -0.14.
For `TAGCCGCA`, the E-score was 0.264.
With `ATTTTACA` the E-score was -0.204.
For `CCCAGTGA`, the E-score was -0.243.

Other studies, line by line
`PhoQ, residues 284 288 289 292 302 303 AGGCYF` gave a fold induction of 15.2 (PhoP, residues 12 14 15 18 19 IFFTR (Escherichia coli, UniProt P23836); Sort-seq, measured: YFP reporter; E. coli; PhoQ-PhoP variant library, together with: 10 µM Mg2+; baseline: high Mg2+ state, higher = stronger signaling).

For quick reference, copied from above (sample 2):
For `GACGGTTTCCGTTCCGGGACGTGCTAG`, “fitted relative affinity” read 4.65 z-score.
For `AACGGTATCCTTATCCTGACGTGCTAG`, “fitted relative affinity” read 0.883 z-score.
